# Assay results collected from several papers.
# Numbered parts are unrelated; each lists some results of a single study. “And” joins repeats or separate records; there may be more than shown.
# Chain of UniProt Q56UN5 (whole entry, looked up): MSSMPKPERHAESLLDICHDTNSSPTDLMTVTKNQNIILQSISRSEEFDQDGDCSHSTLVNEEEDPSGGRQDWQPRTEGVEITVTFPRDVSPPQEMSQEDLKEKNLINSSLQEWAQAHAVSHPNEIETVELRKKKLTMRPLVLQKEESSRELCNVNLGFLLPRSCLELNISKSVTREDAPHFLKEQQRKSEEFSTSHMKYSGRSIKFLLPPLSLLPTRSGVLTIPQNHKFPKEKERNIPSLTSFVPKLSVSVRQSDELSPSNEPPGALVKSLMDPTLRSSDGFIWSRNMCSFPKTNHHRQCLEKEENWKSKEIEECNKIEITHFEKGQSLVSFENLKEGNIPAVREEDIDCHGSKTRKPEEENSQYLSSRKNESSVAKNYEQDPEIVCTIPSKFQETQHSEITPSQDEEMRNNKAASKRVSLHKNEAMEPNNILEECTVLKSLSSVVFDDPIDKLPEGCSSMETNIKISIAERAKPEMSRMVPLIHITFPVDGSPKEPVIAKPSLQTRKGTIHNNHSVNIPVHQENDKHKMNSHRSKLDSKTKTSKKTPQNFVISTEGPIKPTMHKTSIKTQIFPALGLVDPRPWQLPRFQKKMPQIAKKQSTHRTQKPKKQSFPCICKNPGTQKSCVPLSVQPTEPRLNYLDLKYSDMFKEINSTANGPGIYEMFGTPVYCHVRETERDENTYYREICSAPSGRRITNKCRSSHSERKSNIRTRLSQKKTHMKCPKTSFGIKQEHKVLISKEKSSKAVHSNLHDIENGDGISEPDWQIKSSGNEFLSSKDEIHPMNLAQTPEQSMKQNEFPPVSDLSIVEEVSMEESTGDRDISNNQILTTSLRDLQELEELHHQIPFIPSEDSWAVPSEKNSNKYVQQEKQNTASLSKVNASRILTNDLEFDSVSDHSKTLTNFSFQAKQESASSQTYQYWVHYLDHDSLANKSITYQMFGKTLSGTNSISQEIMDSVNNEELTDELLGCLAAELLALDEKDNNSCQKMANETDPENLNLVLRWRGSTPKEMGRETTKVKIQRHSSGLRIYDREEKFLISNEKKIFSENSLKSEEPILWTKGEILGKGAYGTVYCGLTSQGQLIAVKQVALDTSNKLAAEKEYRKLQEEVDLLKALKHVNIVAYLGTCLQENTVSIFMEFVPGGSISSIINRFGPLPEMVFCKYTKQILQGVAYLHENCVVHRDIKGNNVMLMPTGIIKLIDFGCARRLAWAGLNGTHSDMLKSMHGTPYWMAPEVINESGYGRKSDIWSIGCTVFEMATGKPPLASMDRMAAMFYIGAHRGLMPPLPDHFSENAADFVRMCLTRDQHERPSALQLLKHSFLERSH
# Chain of UniProt P14416 (whole entry, looked up): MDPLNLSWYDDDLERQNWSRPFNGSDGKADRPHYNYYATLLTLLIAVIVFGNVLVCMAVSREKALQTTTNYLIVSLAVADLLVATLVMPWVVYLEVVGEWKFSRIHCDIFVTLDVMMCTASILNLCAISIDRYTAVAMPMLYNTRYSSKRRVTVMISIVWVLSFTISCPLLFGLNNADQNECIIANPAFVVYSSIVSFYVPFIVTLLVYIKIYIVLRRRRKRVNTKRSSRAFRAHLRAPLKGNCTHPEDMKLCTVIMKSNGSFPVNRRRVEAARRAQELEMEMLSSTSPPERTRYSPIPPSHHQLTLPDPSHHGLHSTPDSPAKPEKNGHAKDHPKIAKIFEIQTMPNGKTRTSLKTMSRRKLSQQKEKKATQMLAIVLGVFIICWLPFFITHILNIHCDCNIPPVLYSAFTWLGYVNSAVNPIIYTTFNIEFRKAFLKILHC
# Chain of UniProt P18089 (whole entry, looked up): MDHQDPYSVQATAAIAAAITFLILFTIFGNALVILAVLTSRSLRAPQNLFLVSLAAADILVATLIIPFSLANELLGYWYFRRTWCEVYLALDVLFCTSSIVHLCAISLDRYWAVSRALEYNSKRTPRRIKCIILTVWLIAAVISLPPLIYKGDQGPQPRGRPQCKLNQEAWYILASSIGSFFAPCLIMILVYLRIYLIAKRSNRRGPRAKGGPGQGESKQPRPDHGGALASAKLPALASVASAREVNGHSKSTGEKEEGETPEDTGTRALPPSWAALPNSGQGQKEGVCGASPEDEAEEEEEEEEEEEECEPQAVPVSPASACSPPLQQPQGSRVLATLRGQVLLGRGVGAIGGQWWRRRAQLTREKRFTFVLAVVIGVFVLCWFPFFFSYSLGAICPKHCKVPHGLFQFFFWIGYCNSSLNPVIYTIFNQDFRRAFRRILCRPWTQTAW
# Chain of UniProt Q8TDX7 (whole entry, looked up): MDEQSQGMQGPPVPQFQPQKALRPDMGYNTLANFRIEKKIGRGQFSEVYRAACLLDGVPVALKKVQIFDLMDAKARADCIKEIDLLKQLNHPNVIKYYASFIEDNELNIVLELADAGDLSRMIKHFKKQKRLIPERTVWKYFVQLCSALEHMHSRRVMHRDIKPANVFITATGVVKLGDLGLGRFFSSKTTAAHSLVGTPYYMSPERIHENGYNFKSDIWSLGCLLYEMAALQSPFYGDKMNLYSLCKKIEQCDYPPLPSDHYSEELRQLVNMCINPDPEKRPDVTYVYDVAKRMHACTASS

# Sample 1
# Target: DNA polymerase theta, ATPase domain (POLQ, Homo sapiens, UniProt O75417)
# Chain of UniProt O75417 (whole entry, unmodified, looked up): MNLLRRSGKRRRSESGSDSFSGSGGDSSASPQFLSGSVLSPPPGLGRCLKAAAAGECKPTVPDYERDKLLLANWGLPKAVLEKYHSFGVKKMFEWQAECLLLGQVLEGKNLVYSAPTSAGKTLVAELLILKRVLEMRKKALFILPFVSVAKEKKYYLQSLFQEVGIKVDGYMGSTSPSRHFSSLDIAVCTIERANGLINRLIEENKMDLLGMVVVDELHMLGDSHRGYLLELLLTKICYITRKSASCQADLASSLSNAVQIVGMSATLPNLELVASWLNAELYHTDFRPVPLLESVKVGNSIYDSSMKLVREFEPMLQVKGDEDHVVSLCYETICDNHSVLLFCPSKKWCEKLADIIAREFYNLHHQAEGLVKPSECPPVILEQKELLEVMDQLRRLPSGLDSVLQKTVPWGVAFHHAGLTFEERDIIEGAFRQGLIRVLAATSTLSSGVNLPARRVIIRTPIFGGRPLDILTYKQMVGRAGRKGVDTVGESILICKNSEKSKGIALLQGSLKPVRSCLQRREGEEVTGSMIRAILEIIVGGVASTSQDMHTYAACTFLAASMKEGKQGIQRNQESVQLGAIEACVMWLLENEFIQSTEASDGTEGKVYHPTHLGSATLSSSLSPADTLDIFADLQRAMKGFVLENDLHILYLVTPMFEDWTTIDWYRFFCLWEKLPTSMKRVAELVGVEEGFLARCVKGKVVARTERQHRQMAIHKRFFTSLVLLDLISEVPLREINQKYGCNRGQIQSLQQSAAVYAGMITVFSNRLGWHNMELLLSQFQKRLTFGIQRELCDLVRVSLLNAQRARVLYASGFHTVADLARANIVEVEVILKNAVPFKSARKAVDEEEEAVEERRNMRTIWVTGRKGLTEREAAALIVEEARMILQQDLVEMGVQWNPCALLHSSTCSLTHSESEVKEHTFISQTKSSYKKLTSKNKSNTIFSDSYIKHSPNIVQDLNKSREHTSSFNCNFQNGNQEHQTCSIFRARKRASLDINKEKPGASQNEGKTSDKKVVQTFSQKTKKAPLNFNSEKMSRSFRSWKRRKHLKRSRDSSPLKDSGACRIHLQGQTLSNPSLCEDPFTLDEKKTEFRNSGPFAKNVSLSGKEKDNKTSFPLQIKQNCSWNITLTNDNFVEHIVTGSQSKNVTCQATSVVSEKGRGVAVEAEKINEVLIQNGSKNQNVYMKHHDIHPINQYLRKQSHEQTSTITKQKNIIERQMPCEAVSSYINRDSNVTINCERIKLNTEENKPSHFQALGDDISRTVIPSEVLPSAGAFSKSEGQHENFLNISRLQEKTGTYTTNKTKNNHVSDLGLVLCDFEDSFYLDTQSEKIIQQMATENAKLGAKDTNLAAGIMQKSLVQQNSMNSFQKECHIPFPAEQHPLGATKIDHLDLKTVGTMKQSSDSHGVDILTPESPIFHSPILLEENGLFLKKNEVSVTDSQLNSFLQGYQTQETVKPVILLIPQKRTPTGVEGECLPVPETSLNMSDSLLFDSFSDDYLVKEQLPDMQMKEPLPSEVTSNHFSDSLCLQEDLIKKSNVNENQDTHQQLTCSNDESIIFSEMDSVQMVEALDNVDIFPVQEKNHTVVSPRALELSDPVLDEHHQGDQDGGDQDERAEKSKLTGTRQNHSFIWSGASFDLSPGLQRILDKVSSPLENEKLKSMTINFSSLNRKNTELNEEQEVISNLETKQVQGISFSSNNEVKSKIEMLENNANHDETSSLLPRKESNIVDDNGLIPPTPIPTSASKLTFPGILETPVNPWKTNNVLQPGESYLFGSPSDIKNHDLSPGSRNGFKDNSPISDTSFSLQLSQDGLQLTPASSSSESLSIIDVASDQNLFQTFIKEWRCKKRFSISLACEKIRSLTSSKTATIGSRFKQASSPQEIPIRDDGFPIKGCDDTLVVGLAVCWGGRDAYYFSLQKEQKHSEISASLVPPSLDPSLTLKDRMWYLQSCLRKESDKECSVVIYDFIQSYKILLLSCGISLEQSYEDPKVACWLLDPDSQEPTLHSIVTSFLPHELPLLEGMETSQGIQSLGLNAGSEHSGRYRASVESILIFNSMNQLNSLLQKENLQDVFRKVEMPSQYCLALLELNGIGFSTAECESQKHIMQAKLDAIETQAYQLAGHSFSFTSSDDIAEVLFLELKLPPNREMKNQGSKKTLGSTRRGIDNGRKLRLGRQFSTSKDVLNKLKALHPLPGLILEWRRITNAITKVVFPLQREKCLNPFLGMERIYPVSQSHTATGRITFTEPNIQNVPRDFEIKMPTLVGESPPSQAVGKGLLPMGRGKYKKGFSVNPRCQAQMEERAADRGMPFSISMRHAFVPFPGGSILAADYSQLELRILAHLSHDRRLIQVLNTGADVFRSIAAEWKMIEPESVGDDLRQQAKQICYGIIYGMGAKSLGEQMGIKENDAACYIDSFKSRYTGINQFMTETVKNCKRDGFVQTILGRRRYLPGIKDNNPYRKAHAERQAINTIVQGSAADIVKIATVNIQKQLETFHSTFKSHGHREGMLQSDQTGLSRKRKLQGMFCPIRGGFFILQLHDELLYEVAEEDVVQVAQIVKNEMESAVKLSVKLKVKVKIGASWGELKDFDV
# Effect on: enzyme activity
# Mode: inhibitor
# Concentration: 77 µM
# Baseline: untreated
SMILES,remaining activity [%]
Nc1cc(C(F)(F)F)c(-c2cc(N3CCOCC3)nc(N3CCOCC3)n2)cn1,101
CC(/C=C/C(=O)NO)=C\[C@@H](C)C(=O)c1ccc(N(C)C)cc1,101
Cc1cc(C)cc(NC(=O)Cc2ccc(OC(C)(C)C(=O)O)cc2)c1,95.1
COc1ccc(-c2ccc3cc(C(=O)O)ccc3c2)cc1[C@]12C[C@H]3C[C@H](C[C@H](C3)C1)C2,103
O=c1ncccn1[C@@H]1O[C@H](CO)[C@@H](O)[C@H]1O,93
Nc1nc(=O)c2c([nH]1)NCC(CNc1ccc(C(=O)N[C@@H](CCC(=O)O)C(=O)O)cc1)N2C=O (mixture of isomers),109
O=C(O)c1ccccc1,91.8
O=c1cc(-c2ccccc2)oc2c(O)c(O)ccc12,96.9

# Sample 2
# Structure (SMILES): Cc1cc2c(-c3ccco3)cnc(N[C@@H]3CCN(C)C[C@H]3C(=O)NC3CCCCC3)c2[nH]c1=O
# Concentration: 10 µM
target,test,inhibition
"ADRB3 (Homo sapiens, UniProt P13945)",ligand displacement,13.8%
"ADRA2B (Homo sapiens, UniProt P18089)",ligand displacement,-0.37%
"HTR1B (Homo sapiens, UniProt P28222)","binding, radioligand binding",3.37%
"DRD2 (Homo sapiens, UniProt P14416)",ligand displacement,-4.38%
"HTR1E (Homo sapiens, UniProt P28566)",cell-free assay,-38.6%
"DRD1 (Homo sapiens, UniProt P21728)",ligand displacement,27.3%
"HRH3 (Homo sapiens, UniProt Q9Y5N1)",ligand displacement,-9.93%
"CHRM4 (Homo sapiens, UniProt P08173)",ligand displacement,17.1%
"DRD3 (Homo sapiens, UniProt P35462)",ligand displacement,9.01%
"HRH2 (Homo sapiens, UniProt P25021)",ligand displacement,-1.12%
"ADRB1 (Homo sapiens, UniProt P08588)",ligand displacement,1.68%
"HTR1D (Homo sapiens, UniProt P28221)",cell-free assay,-6.42%
"ADRA1A (Homo sapiens, UniProt P35348)",ligand displacement,25.2%

# Sample 3
# SMILES: O=C(Nc1cnn(-c2csc(C(=O)NC3COC3)c2)c1)Nc1c(F)cccc1Cl
# Concentration: 5 µM
target,test,how to read,remaining activity
"Cyclin-dependent kinase 3, with cyclin E (CDK3, Homo sapiens, UniProt Q00526)",enzyme activity,baseline: untreated control,90.9%
"EPHA6 (Homo sapiens, UniProt Q9UF33)",enzyme activity,baseline: untreated control,95.3%
"Protein kinase C beta type, isoform beta-I (PRKCB, Homo sapiens, UniProt P05771)","kinase activity, kinase panel profiling",,100%
"GRK3 (Homo sapiens, UniProt P35626)",enzyme activity,baseline: untreated control,100%
"EPHA3 (Homo sapiens, UniProt P29320)",enzyme activity,baseline: untreated control,95.4%
"MAP3K19 (Homo sapiens, UniProt Q56UN5)",enzyme activity,baseline: untreated control,126% and 97.3%
"Cyclin-dependent kinase 18, with cyclin Y (CDK18, Homo sapiens, UniProt Q07002)",enzyme activity,baseline: untreated control,89.5%
"NEK7 (Homo sapiens, UniProt Q8TDX7)",enzyme activity,baseline: untreated control,87.6%
"TBK1 (Homo sapiens, UniProt Q9UHD2)",enzyme activity,baseline: untreated control,98.5%
"SRC (Homo sapiens, UniProt P12931)",enzyme activity,baseline: untreated control,97.6%
"WNK3 (Homo sapiens, UniProt Q9BYP7)",enzyme activity,baseline: untreated control,87.3%
"VRK1 (Homo sapiens, UniProt Q99986)",enzyme activity,baseline: untreated control,91.1%

# Sample 4
# Cell line: A-375
# Concentration: 100 µM
# Time: 18 h
SMILES,viability [%]
COc1ccnc(C[S+]([O-])c2nc3ccc(OC(F)F)cc3[nH]2)c1OC (stereo not drawn),81.9
CCN1CCCC1CNC(=O)c1cc(S(N)(=O)=O)ccc1OC (stereo not drawn),99.9
C[C@]12CCC(=O)C=C1C=C[C@@H]1[C@@H]2CC[C@@]2(C)[C@H]1CC[C@@]21CCC(=O)O1,87.5
C[C@H]1COc2c(N3CCN(C)CC3)c(F)cc3c(=O)c(C(=O)O)cn1c23,74.7
Cc1cn([C@H]2C=C[C@@H](CO)O2)c(=O)[nH]c1=O,103
CCCCC[C@H](O)/C=C/[C@H]1[C@H](O)CC(=O)[C@@H]1CCCCCCC(=O)O,99.5
CN1C[C@@H]2C[C@H]1CN2c1cc2c(cc1F)c(=O)c(C(=O)O)cn2C1CC1,75
CSCC1CN(/N=C/c2ccc([N+](=O)[O-])o2)C(=O)O1 (stereo not drawn),83.8
c1ccc(CN(CC2=NCCN2)c2ccccc2)cc1,86.3

# Repeated from above (sample 2):
target,test,inhibition
"DRD3 (Homo sapiens, UniProt P35462)",ligand displacement,9.01%
"HRH2 (Homo sapiens, UniProt P25021)",ligand displacement,-1.12%
"ADRB1 (Homo sapiens, UniProt P08588)",ligand displacement,1.68%
"HTR1D (Homo sapiens, UniProt P28221)",cell-free assay,-6.42%
